Experimental data of several laboratories.
Compare with care: the assays were run in different laboratories. Numbers after ± are the reported error.

N=C(N)NCc1ccc(C(=O)NCCCC[C@H](NC(=O)CCCCCCC(=O)NCCCC[C@H](NC(=O)N[C@@H](CCC(=O)O)C(=O)O)C(=O)O)C(=O)O)cc1[211At]
tissue uptake (SCID mouse, PC-3 xenografts, lungs; 1 h): 2.24 ± 0.51 %ID/g

C=Cc1cc(O)cc2nc(-c3ccc(O)c([76Br])c3)oc12
tissue uptake (female C57BL/6 mouse, spleen; 1 h, high dose, added: estradiol 20 µg blocking): 0.09 ± 0.02 %ID/g

N=C(N)NCc1ccc(C(=O)NCCCC[C@H](NC(=O)N[C@@H](CCC(=O)O)C(=O)O)C(=O)O)cc1[131I]
tissue uptake (SCID mouse, PC-3 xenografts, muscle; 1 h): 0.42 ± 0.06 %ID/g

CCCC[C@H](NC(=O)CCOCCOCCNC(=O)CN1CCN(CC(=O)O)CCN(CC(=O)O)CCN(CC(=O)O)CC1)C(=O)N[C@H]1CC(=O)NCCCC[C@@H](C(N)=O)NC(=O)[C@H](Cc2c[nH]c3ccccc23)NC(=O)[C@H](CCCNC(=N)N)NC(=O)[C@@H](Cc2ccccc2)NC(=O)[C@H](Cc2c[nH]cn2)NC1=O [gallium-68 labelled]
tissue uptake (C57BL/6J mice male B16-F10 tumour, stomach; 1 h post injection, unblocked): 0.4 ± 0.2 %ID/g

N=C(N)NCc1ccc(C(=O)NCCCC[C@H](NC(=O)N[C@@H](CCC(=O)O)C(=O)O)C(=O)O)cc1[211At]
tissue uptake (SCID mouse, PC-3 xenografts, heart; 4 h): 0.75 ± 0.34 %ID/g

COc1cc2ncnc(Oc3cccc(N[11C](=O)Nc4cc(C(C)(C)C(F)(F)F)on4)c3)c2cc1OC
tissue uptake (Balb/c nude mouse, female, A375 melanoma xenograft, spleen; 6.6 MBq, 60 min): 3.35 ± 0.15 %ID/g

O=C(c1ccc(F)cc1)C1CCN(C2Cc3c(cccc3OCC[18F])CC2O)CC1 (single isomer, unassigned; (-))
tissue uptake (Sprague-Dawley rat, male, whole brain; 30 min post-injection): 0.482 ± 0.037 %ID/g

CN[C@](C)(C[18F])C(=O)O
tissue uptake (SCID mouse A549 xenograft, kidney; 120 min post injection): 2.6 ± 0.3 %ID/g

O=C(O)CC[C@H](NC(=O)O[C@@H](CCCCNC(=O)c1ccc([18F])cc1)C(=O)O)C(=O)O
tissue uptake (mouse, PC-3 PIP/flu xenografts, large intestine; 180 min): 0.16 ± 0.05 %ID/g

Repeated from above:
N=C(N)NCc1ccc(C(=O)NCCCC[C@H](NC(=O)CCCCCCC(=O)NCCCC[C@H](NC(=O)N[C@@H](CCC(=O)O)C(=O)O)C(=O)O)C(=O)O)cc1[211At]
tissue uptake (SCID mouse, PC-3 xenografts, lungs; 1 h): 2.24 ± 0.51 %ID/g
